Published values collected from several papers.
Several values in a cell are separate wells, animals, samples, runs or records. Numbers after ± are the reported error. ≈ marks a conversion by molar mass, not a printed value.
UniProt O15111, sequence (whole entry, looked up): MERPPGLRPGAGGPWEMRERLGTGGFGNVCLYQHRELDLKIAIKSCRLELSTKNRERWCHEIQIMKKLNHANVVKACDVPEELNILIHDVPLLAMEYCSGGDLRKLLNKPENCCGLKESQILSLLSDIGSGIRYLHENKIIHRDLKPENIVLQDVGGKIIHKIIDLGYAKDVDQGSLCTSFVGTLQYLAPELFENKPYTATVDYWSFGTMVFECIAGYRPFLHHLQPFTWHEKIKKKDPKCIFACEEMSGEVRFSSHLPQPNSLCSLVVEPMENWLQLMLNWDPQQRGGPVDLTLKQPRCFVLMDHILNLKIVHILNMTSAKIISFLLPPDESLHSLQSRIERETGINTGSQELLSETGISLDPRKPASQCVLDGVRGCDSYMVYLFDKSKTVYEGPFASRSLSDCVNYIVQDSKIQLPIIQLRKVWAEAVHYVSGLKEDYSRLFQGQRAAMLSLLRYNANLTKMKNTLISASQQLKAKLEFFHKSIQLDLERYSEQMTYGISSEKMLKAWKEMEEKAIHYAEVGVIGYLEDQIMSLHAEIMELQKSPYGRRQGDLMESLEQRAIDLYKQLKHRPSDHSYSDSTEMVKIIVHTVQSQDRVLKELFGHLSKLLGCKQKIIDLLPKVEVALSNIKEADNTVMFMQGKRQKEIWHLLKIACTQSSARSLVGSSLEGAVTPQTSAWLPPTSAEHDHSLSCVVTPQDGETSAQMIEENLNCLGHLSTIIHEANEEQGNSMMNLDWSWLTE

Compound | target or system | assay | system | conditions | how to read | measurement | result
Cn1c(=O)ccc2ccc(F)c(CCNC[C@H]3CN(c4cnc5c(n4)NC(=O)CO5)C(=O)O3)c21 | Mycoplasma spp. | – | – | – | – | MIC90 | < 0.015 µg/mL
C[C@H]1CN(c2n[nH]c3nc(N[C@H]4CC[C@H](NS(=O)(=O)CCC(F)(F)F)CC4)ncc23)CCO1 | CHUK (Homo sapiens, UniProt O15111) | inhibitor, Kinobeads competition profiling | – | 20 µM | relative to: vehicle | relative abundance | 1.13
Fc1ccc(Cn2nnc3c2CCN(c2ccc(C(F)(F)F)cc2)C3)cc1 | human adenovirus 2 | viral replication | HEL | – | – | EC50 | > 100 µM
CCOC(=O)/C(=N\NC(N)=S)c1cccs1 | Tetrahymena pyriformis and Klebsiella pneumoniae | virulence in co-culture | – | – | – | IC50 | 1.59 µM
CCCN(CCC)CC(O)COc1ccccc1C(=O)Nc1ccccc1 (centres unmarked) | Plasmodium yoelii | oxygen consumption | 17XL | 2 µM | – | inhibition | 20%
Cc1c2c(nn1C)CSCc1cc(n(C)n1)CSc1cc(c3ccccc3c1)OCCCc1c(C(=O)O)n(C)c3c-2c(Cl)ccc13 | Staphylococcus aureus | label-free quantitative proteomics, item: SAOUHSC_02979 protein | SA113 | concentration not given | relative to: untreated control | fold change | 0.0743
CC[C@H](C)[C@@H]1NC(=O)[C@@H]2CCCN2C(=O)[C@H](CC(C)C)NC(=O)[C@H](CC(C)C)NC(=O)CNC(=O)[C@@H](NC(=O)[C@@H](NC(=O)[C@H](CC(=O)O)NC(=O)CNC(=O)[C@@H](NC(=O)[C@H](C)NC(=O)CNC(=O)[C@H](CCCCN)NC(=O)[C@H](CC(C)C)NC(=O)[C@H](CC(C)C)NC(=O)[C@H](CCCCN)NC(=O)CNC(=O)[C@@H](NC(=O)[C@@H](N)CC(C)C)C(C)C)C(C)C)C(C)C)CSSC[C@@H](C(=O)O)NC1=O | – | RNA-seq, item: Ptafr mRNA | mouse traumatic brain injury, frontal cortex and hippocampus | dose not given | relative to: TBI plus compound vs TBI | log2 fold change | -2.76
CN(C)[C@@H]1C(O)=C(C(N)=O)C(=O)[C@@]2(O)C(O)=C3C(=O)c4c(O)cccc4[C@@](C)(O)[C@H]3C[C@@H]12 | Acinetobacter baumannii | – | 19606, biofilm | 25 µg/mL, without HNP1 | – | survival | 49.8% and 65.7% and 64.6% and 59.3% and 60.8% and 55.1%
Cc1ccnc2nc(C(=O)Nc3nc4ccc(Oc5ccccc5)cc4s3)nn12 | Tetrahymena pyriformis and Klebsiella pneumoniae | virulence in co-culture | – | – | – | IC50 | 0.34 µM
COc1cnc(OC)n2nc(NS(=O)(=O)c3c(OCC(F)F)cccc3C(F)(F)F)nc12 | Echinochloa crus-galli | fresh weight | – | 150 g ai/ha, post-emergence treatment | – | inhibition | 91.3% and 92.7% and 92.3%
CC[C@H](C)[C@H](NC(=O)[C@H](C)NC(=O)[C@H](CCCCN)NC(=O)[C@H](CC(C)C)NC(=O)[C@H](C)NC(=O)[C@@H](NC(=O)[C@H](Cc1c[nH]cn1)NC(=O)[C@H](CC(C)C)NC(=O)[C@@H](NC(=O)[C@@H](NC(=O)[C@H](CCCCN)NC(=O)[C@H](C)NC(=O)[C@H](C)NC(=O)[C@H](CO)NC(=O)[C@H](CCCCN)NC(=O)[C@H](Cc1ccccc1)NC(=O)[C@@H](NC(=O)[C@H](CCCCN)NC(=O)[C@H](CC(C)C)NC(=O)[C@H](Cc1ccccc1)NC(=O)[C@H](CO)NC(=O)[C@H](CCCCN)NC(=O)[C@H](Cc1c[nH]c2ccccc12)NC(=O)[C@H](CCCCN)NC(C)=O)[C@@H](C)O)[C@@H](C)O)C(C)C)[C@@H](C)O)C(=O)N[C@@H](CO)C(=O)N[C@@H](CO)C(N)=O | Streptococcus pyogenes | – | erythromycin-sensitive | 21 strains | – | MBC50 | 32 µg/mL (≈ 10.9 µM)
COC1=CC(c2ccc[nH]2)=N/C1=C\c1[nH]c(C)cc1-c1ccc(OC(F)(F)F)cc1.Cl | Plasmodium yoelii | – | CF1 mice | oral, 25 mg/kg daily for 4 days, day 5 | relative to: vehicle | parasitaemia reduction | 100%
C=CC1(C)CC(OC(=O)CSCCCCCN(C)C)C2(C)C(C)CCC3(CCC(=O)C32)C(C)C1O (centres unmarked) | Tetrahymena pyriformis and Klebsiella pneumoniae | virulence in co-culture | – | – | – | IC50 | 6.51 µM
O=C(O)/C=C/C(=O)O.Oc1cccc2[nH]cc(CCNCc3ccccc3)c12 | – | – | C57BL/6J mice | subcutaneous, 3 mg/kg, 30 min | – | distance travelled | 2320 ± 227 cm
Nc1ncnc2c1ncn2[C@@H]1O[C@@H]2COP(=O)(O)O[C@H]3[C@@H](O)[C@H](n4cnc5c(=O)[nH]cnc54)O[C@@H]3COP(=O)(O)O[C@H]2[C@H]1O | Zika virus | upregulated Reactome pathway, RNA sequencing, item: Peptide ligand-binding receptors (R-HSA-375276) | HFF-1 | – | relative to: ZIKV-infected untreated | fold enrichment | 5.06
COc1c(CCC[P+](c2ccccc2)(c2ccccc2)c2ccccc2)cc2c(c1OC)OCO2.[I-] | HCC 2998 | SRB | – | – | – | GI50 | -5.65 log M

Compound | target or system | assay | system | conditions | how to read | measurement | result
N=C(N)NCCC[C@H](NC(=O)[C@@H](Cc1ccccc1)NC(=O)[C@H](Cc1c[nH]cn1)NC(=O)CCCc1ccccc1)C(=O)N[C@@H](Cc1c[nH]c2ccccc12)C(=O)NCC(=O)N[C@@H](CCCCNC(=O)CCCCCNC(=O)CN1CCN(CC(=O)O)CCN(CC(=O)O)CCN(CC(=O)O)CC1)C(N)=O [actinium-225 labelled] | – | five-compartment model fit | SCID mice, A-375 and A-375/MC1R xenografts | – | – | tumour reverse transfer rate constant | 0.0008 h⁻¹
COC1=CC(c2ccc[nH]2)=N/C1=C\c1cc(Cc2ccc(C#N)cc2)c(C)[nH]1.Cl | Plasmodium yoelii | – | CF1 mice | oral, 10 mg/kg daily for 4 days, day 5 | relative to: vehicle | parasitaemia reduction | 5.71%
CC(C)Cc1ccc([C@@H](C)[C@H](O)CC(C)C)cc1 (racemic) | Lactobacillus acidophilus | cell survival | – | 100 µM, 24 h | relative to: DMSO | inhibition | 34%
COC1=CC(c2ccc[nH]2)=N/C1=C\c1cc(Cc2ccc(Cl)cc2)c(C)[nH]1.Cl | Plasmodium yoelii | parasitaemia | mouse | 4-day treatment, parasitaemia day 5 | – | ED90 | 4.03 mg/kg/day
COc1cc(CCC[P+](c2ccccc2)(c2ccccc2)c2ccccc2)c(OC)c2c1OCO2.[I-] | K562 | SRB | – | – | – | GI50 | -6.18 log M
COc1ccc2ccc3oc([N+](=O)[O-])cc3c2c1Br | Mycolicibacterium aurum | REMA | ATCC 23366 | – | – | MIC90 | 0.25 µg/mL (≈ 0.776 µM)
CCCCNCCc1c[nH]c2cccc(O)c12.O=C(O)/C=C/C(=O)O | – | – | C57BL/6J mice | subcutaneous, 0.03 mg/kg | – | head twitch count | 7 ± 2.8
[O-][N+]1=C(c2ccc(Cl)cc2)C2=NCCN2c2ccccc21 | Prevotella spp. | bacterial growth | – | – | – | MIC90 | ≤ 0.06 µg/mL
CC1NC(=O)C(C(=O)NC(C(=O)NC2C(=O)N3C2SC(C)(C)C3C(=O)O)c2ccccc2)=C1O (centres unmarked) | Escherichia coli | broth microdilution | isolate IU 356 A, KPC-3, VIM-1, TEM | together with: clavulanic acid 6 µg/mL | – | MIC | > 200 µg/mL
O=C(O)CN(CC(=O)O)CC(=O)O | Klebsiella aerogenes | – | VIM-1 producer | 32 µg/mL, together with: meropenem | – | meropenem MIC | 1 µg/mL
CCCCCCCCCCCc1c([N+](=O)[O-])oc2ccc3ccccc3c12 | Klebsiella aerogenes | REMA | – | – | – | MIC90 | > 32 µg/mL
CS(=O)(=O)CCCn1c(Cn2c(=O)n(CC(F)(F)F)c3ccncc32)cc2cc(Cl)ccc21 | respiratory syncytial virus | RT-qPCR | hospitalized infants 1-24 months, nasal swab | oral, 2, 1.5 or 1 mg/kg daily, day 4, low dose by age cohort | relative to: baseline | LS mean viral load change | -2.76 log10 copies/mL
CCCCCCn1nnc2c1CCN(c1ccc(C(F)(F)F)cc1)C2 | human adenovirus 2 | viral replication | HEL | – | – | EC50 | > 100 µM
COc1ccc2c(ccc3oc([N+](=O)[O-])c(C)c32)c1 | Mycolicibacterium aurum | REMA | ATCC 23366 | – | – | MIC90 | > 32 µg/mL
Cc1cccc(O)c1C(=O)O | Tetrahymena pyriformis and Klebsiella pneumoniae | virulence in co-culture | – | – | – | IC50 | 10.1 µM
COc1cccc(C(=O)NN(C(=O)c2cc(C)cc(C)c2)C(C)(C)C)c1C | Anopheles gambiae | – | G3, lab susceptible | tarsal contact, 367 mg/m^2, together with: RME 100 mg/m^2 | relative to: control | egg number | decreased

For quick reference, copied from above:
Compound | target or system | assay | system | conditions | how to read | measurement | result
COc1cnc(OC)n2nc(NS(=O)(=O)c3c(OCC(F)F)cccc3C(F)(F)F)nc12 | Echinochloa crus-galli | fresh weight | – | 150 g ai/ha, post-emergence treatment | – | inhibition | 91.3% and 92.7% and 92.3%
CC[C@H](C)[C@H](NC(=O)[C@H](C)NC(=O)[C@H](CCCCN)NC(=O)[C@H](CC(C)C)NC(=O)[C@H](C)NC(=O)[C@@H](NC(=O)[C@H](Cc1c[nH]cn1)NC(=O)[C@H](CC(C)C)NC(=O)[C@@H](NC(=O)[C@@H](NC(=O)[C@H](CCCCN)NC(=O)[C@H](C)NC(=O)[C@H](C)NC(=O)[C@H](CO)NC(=O)[C@H](CCCCN)NC(=O)[C@H](Cc1ccccc1)NC(=O)[C@@H](NC(=O)[C@H](CCCCN)NC(=O)[C@H](CC(C)C)NC(=O)[C@H](Cc1ccccc1)NC(=O)[C@H](CO)NC(=O)[C@H](CCCCN)NC(=O)[C@H](Cc1c[nH]c2ccccc12)NC(=O)[C@H](CCCCN)NC(C)=O)[C@@H](C)O)[C@@H](C)O)C(C)C)[C@@H](C)O)C(=O)N[C@@H](CO)C(=O)N[C@@H](CO)C(N)=O | Streptococcus pyogenes | – | erythromycin-sensitive | 21 strains | – | MBC50 | 32 µg/mL (≈ 10.9 µM)
COC1=CC(c2ccc[nH]2)=N/C1=C\c1[nH]c(C)cc1-c1ccc(OC(F)(F)F)cc1.Cl | Plasmodium yoelii | – | CF1 mice | oral, 25 mg/kg daily for 4 days, day 5 | relative to: vehicle | parasitaemia reduction | 100%
